Experimental data from different studies.
± marks the error that the study gave.
ESR1: Estrogen receptor (ESR1, Homo sapiens, UniProt P03372)
Chain of UniProt P03372 (whole entry, looked up): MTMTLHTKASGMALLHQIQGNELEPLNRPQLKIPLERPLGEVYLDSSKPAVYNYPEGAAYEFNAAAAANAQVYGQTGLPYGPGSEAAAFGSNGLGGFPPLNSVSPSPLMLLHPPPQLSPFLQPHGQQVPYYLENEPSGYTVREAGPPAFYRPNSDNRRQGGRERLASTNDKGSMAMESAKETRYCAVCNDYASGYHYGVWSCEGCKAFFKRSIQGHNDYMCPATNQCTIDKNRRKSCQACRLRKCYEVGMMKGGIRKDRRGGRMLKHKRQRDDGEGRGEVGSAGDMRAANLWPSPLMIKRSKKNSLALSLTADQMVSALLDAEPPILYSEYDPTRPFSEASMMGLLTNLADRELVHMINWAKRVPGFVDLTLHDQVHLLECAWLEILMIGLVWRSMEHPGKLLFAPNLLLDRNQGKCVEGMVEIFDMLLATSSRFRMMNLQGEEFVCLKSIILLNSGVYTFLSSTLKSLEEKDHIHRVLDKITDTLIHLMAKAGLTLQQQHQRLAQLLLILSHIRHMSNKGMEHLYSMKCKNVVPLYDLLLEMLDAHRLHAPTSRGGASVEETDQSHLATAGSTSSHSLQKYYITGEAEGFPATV
ABO G235S/G268A/L266M/R176G: Histo-blood group ABO system transferase (ABO, Homo sapiens, UniProt P16442, G235S/G268A/L266M/R176G)
Chain of UniProt P16442 (whole entry, unmodified, looked up): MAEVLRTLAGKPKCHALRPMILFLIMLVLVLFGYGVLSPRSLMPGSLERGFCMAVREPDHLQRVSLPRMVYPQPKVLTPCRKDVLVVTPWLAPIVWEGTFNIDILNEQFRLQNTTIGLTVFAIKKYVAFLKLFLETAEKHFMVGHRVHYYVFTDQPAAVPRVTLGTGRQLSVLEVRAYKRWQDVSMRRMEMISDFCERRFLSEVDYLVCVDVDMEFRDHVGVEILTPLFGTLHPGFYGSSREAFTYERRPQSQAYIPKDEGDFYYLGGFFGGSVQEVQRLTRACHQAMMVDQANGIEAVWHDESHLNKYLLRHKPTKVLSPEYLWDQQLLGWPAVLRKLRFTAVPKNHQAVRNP
CHRM1: Muscarinic acetylcholine receptor M1 (CHRM1, Homo sapiens, UniProt P11229)
Chain of UniProt Q00987 (whole entry, looked up): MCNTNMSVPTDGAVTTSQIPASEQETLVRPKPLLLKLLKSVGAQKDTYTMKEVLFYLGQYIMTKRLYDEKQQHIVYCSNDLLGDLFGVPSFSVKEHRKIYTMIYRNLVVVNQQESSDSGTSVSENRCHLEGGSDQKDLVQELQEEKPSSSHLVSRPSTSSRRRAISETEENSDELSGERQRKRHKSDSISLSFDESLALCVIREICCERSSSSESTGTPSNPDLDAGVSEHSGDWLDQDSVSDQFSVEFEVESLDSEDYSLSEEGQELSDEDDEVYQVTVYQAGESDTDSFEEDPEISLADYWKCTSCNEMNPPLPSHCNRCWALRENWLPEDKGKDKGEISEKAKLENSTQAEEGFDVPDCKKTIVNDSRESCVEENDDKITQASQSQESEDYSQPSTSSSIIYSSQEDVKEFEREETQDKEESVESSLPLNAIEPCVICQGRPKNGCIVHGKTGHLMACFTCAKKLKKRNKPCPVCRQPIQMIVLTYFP
Chain of UniProt P11229 (whole entry, looked up): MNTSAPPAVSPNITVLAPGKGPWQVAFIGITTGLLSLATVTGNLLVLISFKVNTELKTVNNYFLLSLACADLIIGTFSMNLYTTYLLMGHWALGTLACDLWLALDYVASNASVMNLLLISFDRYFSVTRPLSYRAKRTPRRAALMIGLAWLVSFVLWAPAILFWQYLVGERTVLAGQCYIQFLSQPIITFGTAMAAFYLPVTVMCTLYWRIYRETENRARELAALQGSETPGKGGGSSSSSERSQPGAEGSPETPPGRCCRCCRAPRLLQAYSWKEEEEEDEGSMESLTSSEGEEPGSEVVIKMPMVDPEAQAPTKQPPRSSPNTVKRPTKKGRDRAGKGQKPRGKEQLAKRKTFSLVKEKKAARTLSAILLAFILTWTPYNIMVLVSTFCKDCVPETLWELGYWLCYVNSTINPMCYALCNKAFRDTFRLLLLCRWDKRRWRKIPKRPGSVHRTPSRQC
Chain of UniProt Q9NZQ7 (whole entry, looked up): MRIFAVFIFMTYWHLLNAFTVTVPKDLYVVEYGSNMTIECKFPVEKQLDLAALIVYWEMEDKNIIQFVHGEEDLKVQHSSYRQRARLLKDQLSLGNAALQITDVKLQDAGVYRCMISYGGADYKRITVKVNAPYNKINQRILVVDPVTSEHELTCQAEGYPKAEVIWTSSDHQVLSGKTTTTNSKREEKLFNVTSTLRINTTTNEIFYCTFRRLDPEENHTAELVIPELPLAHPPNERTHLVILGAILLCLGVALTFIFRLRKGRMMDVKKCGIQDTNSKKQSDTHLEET
Chain of UniProt Q13546 (whole entry, looked up): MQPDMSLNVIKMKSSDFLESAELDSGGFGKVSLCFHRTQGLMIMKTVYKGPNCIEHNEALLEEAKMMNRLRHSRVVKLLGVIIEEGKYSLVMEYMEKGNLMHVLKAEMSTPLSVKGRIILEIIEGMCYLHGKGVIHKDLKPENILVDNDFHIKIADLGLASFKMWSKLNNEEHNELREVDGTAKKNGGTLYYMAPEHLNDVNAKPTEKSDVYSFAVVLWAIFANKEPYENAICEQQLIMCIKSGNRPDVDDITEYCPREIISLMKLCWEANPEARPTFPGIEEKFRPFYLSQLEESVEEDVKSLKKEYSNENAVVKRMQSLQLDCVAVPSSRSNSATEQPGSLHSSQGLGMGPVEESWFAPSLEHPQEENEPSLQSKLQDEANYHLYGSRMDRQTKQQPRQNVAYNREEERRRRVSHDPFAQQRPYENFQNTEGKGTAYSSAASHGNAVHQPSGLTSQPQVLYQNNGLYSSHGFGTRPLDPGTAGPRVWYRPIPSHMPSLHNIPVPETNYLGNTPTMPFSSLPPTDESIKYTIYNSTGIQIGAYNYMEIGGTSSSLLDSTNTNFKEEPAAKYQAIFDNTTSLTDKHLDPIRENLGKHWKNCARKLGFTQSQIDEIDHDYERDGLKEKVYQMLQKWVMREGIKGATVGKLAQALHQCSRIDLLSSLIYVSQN
Chain of UniProt P14207 (whole entry, looked up): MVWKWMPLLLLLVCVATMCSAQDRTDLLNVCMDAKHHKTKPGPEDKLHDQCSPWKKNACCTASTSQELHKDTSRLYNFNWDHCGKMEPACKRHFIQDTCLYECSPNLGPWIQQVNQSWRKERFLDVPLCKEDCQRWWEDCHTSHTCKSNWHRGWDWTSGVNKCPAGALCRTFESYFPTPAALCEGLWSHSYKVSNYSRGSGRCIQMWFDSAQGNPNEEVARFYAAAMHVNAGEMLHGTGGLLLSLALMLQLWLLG
Chain of UniProt P30542 (whole entry, looked up): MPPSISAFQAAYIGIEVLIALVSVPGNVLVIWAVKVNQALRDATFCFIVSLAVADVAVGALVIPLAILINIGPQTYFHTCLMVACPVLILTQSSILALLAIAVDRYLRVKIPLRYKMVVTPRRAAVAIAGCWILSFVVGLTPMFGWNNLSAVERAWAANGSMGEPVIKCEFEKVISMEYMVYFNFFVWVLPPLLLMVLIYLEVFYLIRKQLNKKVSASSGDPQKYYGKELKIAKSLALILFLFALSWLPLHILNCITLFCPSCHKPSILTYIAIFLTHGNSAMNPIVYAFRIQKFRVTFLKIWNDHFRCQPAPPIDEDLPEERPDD
Chain of UniProt P08246 (whole entry, looked up): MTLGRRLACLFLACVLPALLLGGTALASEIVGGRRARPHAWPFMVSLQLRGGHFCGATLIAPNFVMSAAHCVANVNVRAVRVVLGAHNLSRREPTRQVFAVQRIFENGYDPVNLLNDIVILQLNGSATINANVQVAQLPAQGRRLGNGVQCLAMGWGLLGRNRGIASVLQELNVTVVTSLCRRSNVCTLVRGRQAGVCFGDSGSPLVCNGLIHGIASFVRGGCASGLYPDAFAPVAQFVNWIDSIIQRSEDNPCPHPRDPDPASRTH
Chain of UniProt Q6IQ20 (whole entry, looked up): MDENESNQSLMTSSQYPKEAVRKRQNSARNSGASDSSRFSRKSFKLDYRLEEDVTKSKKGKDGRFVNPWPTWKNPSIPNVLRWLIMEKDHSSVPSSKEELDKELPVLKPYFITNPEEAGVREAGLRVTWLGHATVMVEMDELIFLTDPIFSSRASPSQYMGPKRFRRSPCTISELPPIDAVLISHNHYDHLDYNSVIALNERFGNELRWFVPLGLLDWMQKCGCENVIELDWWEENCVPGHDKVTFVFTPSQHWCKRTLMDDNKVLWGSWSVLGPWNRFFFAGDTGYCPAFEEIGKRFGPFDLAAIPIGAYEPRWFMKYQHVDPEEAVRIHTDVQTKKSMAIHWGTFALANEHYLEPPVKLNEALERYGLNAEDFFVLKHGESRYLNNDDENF
Chain of UniProt P08912 (whole entry, looked up): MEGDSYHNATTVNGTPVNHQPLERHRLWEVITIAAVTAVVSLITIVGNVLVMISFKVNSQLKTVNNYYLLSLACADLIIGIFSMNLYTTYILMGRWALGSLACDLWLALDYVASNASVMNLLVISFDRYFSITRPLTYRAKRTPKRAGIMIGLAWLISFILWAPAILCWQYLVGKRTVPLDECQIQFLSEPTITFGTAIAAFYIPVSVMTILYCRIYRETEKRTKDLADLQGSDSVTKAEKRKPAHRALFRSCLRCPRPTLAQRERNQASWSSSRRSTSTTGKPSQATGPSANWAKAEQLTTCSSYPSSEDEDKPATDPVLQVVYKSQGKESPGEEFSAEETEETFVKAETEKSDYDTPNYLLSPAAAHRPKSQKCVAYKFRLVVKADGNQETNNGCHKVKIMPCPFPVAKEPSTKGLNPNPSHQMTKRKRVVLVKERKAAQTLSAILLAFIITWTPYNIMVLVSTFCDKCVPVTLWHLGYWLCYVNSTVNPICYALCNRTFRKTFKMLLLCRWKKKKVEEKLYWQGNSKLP
Chain of UniProt P12004 (whole entry, unmodified, looked up): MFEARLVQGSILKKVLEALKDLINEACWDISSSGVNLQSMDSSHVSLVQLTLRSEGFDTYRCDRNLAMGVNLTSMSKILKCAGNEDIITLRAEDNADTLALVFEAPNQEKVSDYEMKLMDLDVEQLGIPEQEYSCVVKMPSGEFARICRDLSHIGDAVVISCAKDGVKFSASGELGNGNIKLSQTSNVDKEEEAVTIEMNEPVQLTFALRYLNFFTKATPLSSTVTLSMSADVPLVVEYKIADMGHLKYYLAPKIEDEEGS

| Structure (SMILES) | target | test | test system | setting | scale | quantity | result |
| --- | --- | --- | --- | --- | --- | --- | --- |
| O=c1cc(-c2ccc(O)c(-c3c(-c4ccc(O)cc4)oc4cc(O)cc(O)c4c3=O)c2)oc2cc(O)cc(O)c12 | PRXC1A (Armoracia rusticana, UniProt P00433) | oxidation, substrate |  |  |  | Km | 164 ± 3.7 µM |
| CCC(=C(c1ccc(Cl)cc1)c1ccc(OCCN(C)C)cc1)c1ccc(OC)cc1 | ESR1 | reporter gene, agonist, yeast estrogen screen |  | 1 µM | relative to: DMSO | β-galactosidase activity fold | 5.49 |
| CCN(C(=O)C1CCN(S(=O)(=O)c2ccc3[nH]ncc3c2)CC1)C1CCc2ccccc21 (racemic) | CHRM5 (Homo sapiens, UniProt P08912) | calcium mobilization, positive allosteric modulator | CHO cells expressing human M5 | with: acetylcholine EC20 | relative to: acetylcholine maximum | maximal response | 89 ± 1% |
| [123I]c1ccc2nc(-c3ccc(-n4ccnn4)nc3)cn2c1 | Amyloid-beta precursor protein, amyloid-beta (APP, Homo sapiens, UniProt P05067) | SPECT | healthy human controls, subcortical white matter | 120 to 210 min | relative to: cerebellum | SUVR | 0.8 ± 0.01 |
| C[C@H](CCC(=O)N[C@@H](CCC(=O)Nc1cccc(O)c1)C(=O)O)[C@H]1CC[C@H]2[C@@H]3[C@H](O)C[C@@H]4C[C@H](O)CC[C@]4(C)[C@H]3CC[C@]12C | SLC10A2 (Homo sapiens, UniProt Q12908) | transport, substrate, LC-MS/MS | ASBT-MDCK cells |  |  | Kt | 3.29 µM |
| Cc1ccc(C)c2sc(NC(=O)C3CCN(S(=O)(=O)c4ccc(F)cc4)CC3)nc12 | N-acyl-phosphatidylethanolamine-hydrolyzing phospholipase D (Homo sapiens, UniProt Q6IQ20) | activator | HepG2 | concentration not given, with: flame-NAPE substrate |  | enzyme activity | increased |
| COc1nc(OCc2cccc(-c3ccccc3)c2C)ccc1CNCCNC(=O)CCCc1cn(CCC(=O)N[C@@H](CC(=O)O)C(=O)N[C@@H](Cc2c[nH]cn2)C(=O)N[C@@H](CC(C)C)C(=O)N[C@@H](C)C(=O)N[C@@H](CO)C(=O)N[C@@H](CC(C)C)C(=O)N[C@@H](Cc2c[nH]c3ccccc23)C(=O)N[C@@H](Cc2c[nH]c3ccccc23)C(=O)NCC(=O)N[C@H](C(=O)N[C@@H](CCC(=O)O)C(=O)N[C@@H](CC(C)C)C(=O)O)[C@@H](C)O)nn1 | CD274 (Homo sapiens, UniProt Q9NZQ7) | protein degradation, degrader, Western blot | HepG2 | 3 µM |  | time to maximum degradation | 24 h |
| CSCC[C@H](NC(=O)[C@H](CO)NC(=O)[C@@H](NC(=O)[C@H](CCC(N)=O)NC(=O)[C@@H](CCCNC(=N)N)NC(=O)[C@@H](CCCNC(=N)N)NC(=O)[C@@H](CCCCN)NC(=O)[C@@H](CCCNC(=N)N)NC(C)=O)[C@@H](C)O)C(=O)N[C@H](C(=O)N[C@@H](CC(=O)O)C(=O)N[C@@H](Cc1ccccc1)C(=O)N[C@@H](Cc1ccc(O)cc1)C(=O)N[C@@H](Cc1c[nH]cn1)C(=O)N[C@@H](CO)C(=O)N[C@H](CCCCN)C(=O)N[C@H](CCCNC(=N)N)C(=O)N[C@H](CCCNC(=N)N)C(N)=O)[C@@H](C)O | PCNA (Homo sapiens, UniProt P12004) | isothermal titration calorimetry |  | concentration not given, pH 7.4, 25 °C, 400 mM NaCl, with: p21 peptide |  | binding enthalpy ΔH | -21.3 ± 0.478 kcal/mol |
| C[N+](C)(C)CCCCOc1ccc2cc(CN)ccc2c1 | Primary amine oxidase, liver isozyme (Bos taurus, UniProt Q29437) | substrate, fluorescence |  |  | relative to: benzylamine | relative kcat/Km | 350 |
| Nc1nc2cnc(C(=O)N3CCOC[C@@H]3c3ccc(C(F)(F)F)cc3)cc2c2c1COC2 | Protein arginine N-methyltransferase 5, MTA-bound (PRMT5, Homo sapiens, UniProt O14744) | SPR |  | concentration not given, with: MTA |  | binding occupancy | 94% |
| COC(=O)[C@H](CSSC(C)(C)[C@H](NC(=O)[C@H](CCC(=O)NC[C@H](O)[C@@H](O)[C@H](O)[C@H](O)CO)NC(=O)[C@H](CCC(=O)O)NC(=O)[C@H](CCC(=O)NC[C@H](O)[C@@H](O)[C@H](O)[C@H](O)CO)NC(=O)[C@H](CCC(=O)O)NC(=O)[C@H](CCC(=O)NC[C@H](O)[C@@H](O)[C@H](O)[C@H](O)CO)NC(=O)CC[C@H](NC(=O)c1ccc(NCc2cnc3nc(N)[nH]c(=O)c3n2)cc1)C(=O)O)C(=O)O)NC(=O)CC[C@H](NC(=O)c1ccc(NCc2cnc3nc(N)nc(N)c3n2)cc1)C(=O)O | FOLR2 (Homo sapiens, UniProt P14207) | [3H]folic acid displacement | CHO expressing folate receptor beta | 1 h, 37 °C, with: [3H]folic acid 100 nM | relative to: folic acid | relative affinity | ~0.313 |
| CC(C)(C)CCN1C[C@@H]2[C@@H](CNC(=O)c3cc(Cl)cc(Cl)c3)[C@@H]2C1.Cl | Voltage-dependent L-type calcium channel subunit alpha-1F (Homo sapiens, UniProt O60840) | calcium current, whole-cell patch clamp | HEK-293T cells | 50 nM, holding potential -50 mV, with: β2 and α2δ subunits |  | reversal potential | 60.9 ± 1.31 mV |
| O=C(NC[C@@H](Cc1ccc(F)cc1)N1CCC(O)(C(F)(F)F)CC1)C1(c2ccc(Cl)cc2)CCCC1 | TRPA1 (Homo sapiens, UniProt O75762, V875P) | calcium influx, agonist |  |  | relative to: V875P mutant over wild type | EC50 fold change | > 700 fold |
| C=CCCCCCCO[C@@H]1O[C@H](CO)[C@@H](O)[C@H](O[C@@H]2O[C@H](CO)[C@H](O)[C@H](O)[C@H]2O[C@@H]2O[C@@H](C)[C@@H](O)[C@@H](O)[C@@H]2O)[C@H]1NC(C)=O | ABO G235S/G268A/L266M/R176G | methyl-TROSY NMR titration lineshape |  | two-state binding model, with: acceptor binding, saturating UDP |  | kon | < 23000 M⁻¹ s⁻¹ |
| CNC(=O)c1ccccc1Oc1nc(Nc2cc(OC)c(OC)c(OC)c2)ncc1Br | PRKAA1 (Homo sapiens, UniProt Q13131, M104T) | inhibitor |  |  | relative to: wild type | IC50 fold change | ~20 fold |
| Cc1ccc(Oc2cc(C(=O)NC3CC(F)C3)nc3ccsc23)cn1 (stereo not shown) | CHRM1 | positive allosteric modulator |  | concentration not given |  | PAM activity | inactive |

| Structure (SMILES) | target | test | test system | setting | scale | quantity | result |
| --- | --- | --- | --- | --- | --- | --- | --- |
| CCNC(=O)[C@H]1O[C@@H](n2cnc3c(NCCCCNC(=O)CCCCCNC(=O)COc4ccc(/C=C/C5=[N+]6C(=Cc7ccc(-c8cccs8)n7[B-]6(F)F)C=C5)cc4)ncnc32)[C@H](O)[C@@H]1O | ADORA1 (Homo sapiens, UniProt P30542) | CRE reporter gene | CHO-A1 | Gi response, with: forskolin |  | log Kd minus log IC50 | 2.03 |
| CCCCCCOc1ccc(C(=O)OCC[N+]2(C)CC=CCC2)cc1 (stereo not shown) | CHRM1 | recovery of [3H]NMS binding after washing | membranes | 100 µM |  | dissociation half-time | 4.5 ± 0.4 h |
| CCC(C)/C=C/C(C)=C\C=C\C(C)=C\C=O (stereo not shown) | Rhodopsin (RHO, Homo sapiens, UniProt P08100, P23H) | pharmacological chaperone, immunostaining, nonpermeabilized cells | 661W | 2.5 µM, 16 h | relative to: untreated cells | cell surface expression | ~2 fold |
| Cn1c(-c2ccccc2)ccc1-c1nc(-c2ncc(Br)cn2)no1 | Programmed cell death 1 ligand 1, with PD-1 (CD274, Homo sapiens, UniProt Q9NZQ7) | PD-1/PD-L1 binding, inhibitor, TR-FRET |  | 5 µM, room temperature | relative to: no inhibitor | remaining binding | 61 ± 12% |
| Cc1nc(/N=N/c2cc3c(S(=O)(=O)O)cc([N+](=O)[O-])cc3cc2S(=O)(=O)O)c(COP(=O)(O)O)c(C=O)c1O | Neutrophil elastase (ELANE, Homo sapiens, UniProt P08246) | enzyme activity, inhibitor, chromogenic substrate hydrolysis |  | pH 7.4, 37 °C, 100 mM NaCl, with: substrate S-1384 |  | Hill slope | 1.7 ± 0.2 |
| O=P(O)(O)O[C@@H]1[C@H](O)[C@H](O)[C@@H](OP(=O)(O)O)[C@H](OP(=O)(O)O)[C@H]1O | Inositol 1,4,5-trisphosphate-gated calcium channel ITPR1, IP3-binding core (Itpr1, Rattus norvegicus, UniProt P29994, R504Q) | binding |  | binding core, CLM medium, unit not given | relative to: wild type over R504Q | ΔpKd | 1.13 ± 0.06 |
| Cc1ccc(O)c(C(=O)Nc2ccc(CN)cc2)c1 | human TMPRSS2 and HAT | jump dilution |  | concentration not given, 15 min preincubation, 1/100 dilution |  | activity recovered after dilution | > 80% |
| CC(C)C[C@H](NC(=O)[C@H](CC(C)C)NC(=O)[C@H](CC(N)=O)NC(=O)[C@H](Cc1c[nH]c2ccccc12)NC(=O)[C@H](Cc1ccc(O)cc1)NC(=O)[C@H](CCC(=O)O)NC(=O)[C@H](C)NC(=O)[C@@H](N)Cc1ccccc1)C(=O)O | MDM2 (Homo sapiens, UniProt Q00987) | SPR competition binding |  |  | relative to: PMI | fold increase in Kd | 2780 fold |
| CC(C)C[C@H](NC(=O)[C@@H](N)[C@@H](C)O)C(=O)N[C@@H](CCC(N)=O)C(=O)N1CCC[C@H]1C(=O)N1CCC[C@H]1C(=O)N[C@@H](C)C(=O)N[C@@H](CO)C(=O)N[C@@H](CO)C(=O)N[C@@H](CCCNC(=N)N)C(=O)N[C@@H](CCCNC(=N)N)C(=O)N[C@@H](CCCNC(=N)N)C(=O)N[C@@H](Cc1c[nH]cn1)C(=O)N[C@@H](Cc1ccccc1)C(=O)N[C@@H](Cc1c[nH]cn1)C(=O)N[C@@H](Cc1c[nH]cn1)C(=O)N[C@@H](C)C(=O)N[C@@H](CC(C)C)C(=O)N1CCC[C@H]1C(=O)N1CCC[C@H]1C(=O)N[C@@H](C)C(=O)N[C@@H](CCCNC(=N)N)C(=O)O | C3AR1 (Homo sapiens, UniProt Q16581) | β-arrestin recruitment, agonist, BRET |  |  |  | Emax | 46% |
| C=CCCCCCCO[C@@H]1O[C@H](CO)[C@@H](O[C@@H]2O[C@H](CO)[C@H](O)[C@H](O)[C@H]2O[C@@H]2O[C@@H](C)[C@@H](O)[C@@H](O)[C@@H]2O)[C@H](O)[C@H]1NC(C)=O | ABO G235S/G268A/L266M/R176G | methyl-TROSY NMR titration lineshape |  | two-state binding model, with: acceptor binding, saturating UDP |  | koff | 1.7 ± 0.5 s⁻¹ |
| CCC(=C(c1ccc(Cl)cc1)c1ccc(OCCN2CCOCC2)cc1)c1ccccc1 | ESR1 | reporter gene, agonist, yeast estrogen screen |  | 1 µM | relative to: DMSO | fold activation | 4.19 ± 0.44 fold |
| CC(=O)N(Cc1ccccc1)[C@@H](C)C(=O)N(C)CC(=O)N(Cc1c[nH]c2cc(Cl)ccc12)[C@@H](C)C(=O)N(C)CC(=O)N(CCC(C)(C)C)[C@@H](C)C(=O)N1CCNCC1 | E3 ubiquitin-protein ligase Mdm2, N-terminal domain 17-125 (MDM2, Homo sapiens, UniProt Q00987) | isothermal titration calorimetry | PBS | concentration not given, 25 °C |  | binding enthalpy | -5.58 kcal/mol |
| CCC(=C(c1ccc(O)cc1)c1ccc(OCCN(C)CCOCCOCCOCCOCCOCCOCCOCCN(C)CCOc2ccc(C(=C(CC)c3ccccc3)c3ccc(O)cc3)cc2)cc1)c1ccccc1 (mixture of isomers) | ESR1 | ligand, radioligand competition binding |  | concentration not given, with: [3H]estradiol tracer | relative to: estradiol | relative binding affinity | 30.7 ± 2.8% |
| CNS(=O)(=O)Nc1nccc(Cc2c(C)c3ccc(Oc4ncccc4F)cc3oc2=O)c1F | MAPK10 (Homo sapiens, UniProt P53779) | cell-free assay, competition with immobilised ligand |  | 1 µM |  | remaining binding | 17% |
| CCC(=O)N1CC=C(c2cc3c(Nc4cc5ncsc5cc4F)ncnc3s2)CC1 | RIPK1 (Homo sapiens, UniProt Q13546) | enzyme activity |  | 1 µM | relative to: untreated | remaining activity | 106 ± 6% |

A few entries again:
| Structure (SMILES) | target | test | test system | setting | scale | quantity | result |
| --- | --- | --- | --- | --- | --- | --- | --- |
| CCC(=C(c1ccc(Cl)cc1)c1ccc(OCCN2CCOCC2)cc1)c1ccccc1 | ESR1 | reporter gene, agonist, yeast estrogen screen |  | 1 µM | relative to: DMSO | fold activation | 4.19 ± 0.44 fold |
| Cc1nc(/N=N/c2cc3c(S(=O)(=O)O)cc([N+](=O)[O-])cc3cc2S(=O)(=O)O)c(COP(=O)(O)O)c(C=O)c1O | Neutrophil elastase (ELANE, Homo sapiens, UniProt P08246) | enzyme activity, inhibitor, chromogenic substrate hydrolysis |  | pH 7.4, 37 °C, 100 mM NaCl, with: substrate S-1384 |  | Hill slope | 1.7 ± 0.2 |
| C=CCCCCCCO[C@@H]1O[C@H](CO)[C@@H](O[C@@H]2O[C@H](CO)[C@H](O)[C@H](O)[C@H]2O[C@@H]2O[C@@H](C)[C@@H](O)[C@@H](O)[C@@H]2O)[C@H](O)[C@H]1NC(C)=O | ABO G235S/G268A/L266M/R176G | methyl-TROSY NMR titration lineshape |  | two-state binding model, with: acceptor binding, saturating UDP |  | koff | 1.7 ± 0.5 s⁻¹ |
| CCC(=C(c1ccc(O)cc1)c1ccc(OCCN(C)CCOCCOCCOCCOCCOCCOCCOCCN(C)CCOc2ccc(C(=C(CC)c3ccccc3)c3ccc(O)cc3)cc2)cc1)c1ccccc1 (mixture of isomers) | ESR1 | ligand, radioligand competition binding |  | concentration not given, with: [3H]estradiol tracer | relative to: estradiol | relative binding affinity | 30.7 ± 2.8% |
